Measurements collected from several papers.
Each numbered part is a random draw from the data of one study; scales do not carry over between parts. Positions count from the first letter of the parent shown.

Series 1 — technique: RNA Bind-n-Seq; molecule type: RNA; medium: in vitro; concentration: 365 nM; relative to: no-protein control; reading: higher = stronger binding
Target: RNA binding protein fox-1 homolog 2, RRM domain, GST-SBP tag (RBFOX2, Homo sapiens, UniProt O43251-10, residues 100-194)
Notes: natural RNA segment, single round, ends assumed
Constant ends, left off below: GGGAGUUCUACAGUCCGACGAUC … UGGAAUUCUCGGGUGCCAA
Target sequence (chain): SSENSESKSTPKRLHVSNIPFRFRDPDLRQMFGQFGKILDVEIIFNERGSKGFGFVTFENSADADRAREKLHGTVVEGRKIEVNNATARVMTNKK
Oligonucleotide | RBNS enrichment (R)
CUGUAGUGAAUACUGUGUCACCAAUUUUGAAAUCAAUUUAAUGUUUAAUGCAAAUCCAUUACAUGGUGCUAUUAUAGGCUGACAAAAUGAUUUACACAAAUGUGACAACU | 0.256
CUUCUGUGUUGUGUGCAGAGACUGCACAGUAAAACAGUCACUUUUGCCAACAAGAAUGUGUGGCGCCCCACAUCUCCCUACCUUGCACUCUAGGGCCAGACCACUCUCUG | 0.623
AACAUAACCUUAUGCUGCCCUUGGCUUGGCCACAUUUGUUAAAUCCUUAUUAUAUUGAUACUCUUCUUGAGGAGGAAAUCUCACCUUUUCUUUUUCAAGAGAUUCUGAGG | 0.383
CACUGUGGCCCUAGAAAACGAAGAUGAAGCCUCCACUGACCACUGUGUCCUCUCUGACUUGGCCAGCCUGAUGGUCCUUCCUUCUACUCUGUGUAGUCAUUCCUAAGCCC | 0.488
ACUUUGUACCUUUCCCCUGAUUUUUAAACCCUUUUUCUAAACAGACUGACUUUCUUACAAAAUGCAUUUGGAAACCAGACCUUUGCUACCCACCAAUGUCUCUGGGUUUU | 0.883
ACAGUACUUGGUCACAAUAUCAAGUGUAUUUUUGUACAUAAUAUAUAUUGAUUAGAAAAACGUCAAUUGUCUAUUCAAAAAAUUCUAUCUCUGUGAUAGAUUAUAUUUAU | 0.411
UUUCUCGGGAAUUUUCAUCUAGGAUUUUAAGGGAAGGGGAAGGAUAGGGUGAUGUUCCGAAGGUGAGGAGCUUGAAACCCGUGGCGCUUUCUGCAGUUUGCAGGUUAUCA | 0.616
AAAAUAAUAAUAUACAGAGUUUAAUAGAAGGUGAUGUUUUGGUUUUGUUUUCCCAGAGGCUGCCAUAUGGUCUUUGAGUACGGGGAUGUCCCAAACUGGCCCACCAAUGA | 0.567
CCAUAGUACUUAAAUUGAACAGUUGCAAAGAUGUCUUAAUUGUGUAAAGAAUUGGUGUAGUCAUGACUUUAGCUGAUACUCUUAUGUACGAGAUCUGUCUCUGCUGUUUA | 0.587
GUGGCACGUAUUGCUGUGUCUCCUCUCAGAGUGACAGUCAUAAAUACUGUCAAACAAUAAAGGGAGAAUGGUGCUGUUUAAAGUCACAUCCCUGUAAAUUGCAGAAUUCA | 0.963
GGCCCAGAGUCUGAAGAAAUGGCACAGGGACAGUGAAUGGUAGUGUUGCCACCCUGUGCUGAGGCCUGAGGCCUCUUCCUCAGCUUUAUCUCCCUUUCCUUCACUCAAGG | 0.581
UGAAGACUGAAGCCCCACAGUGGAAUUGGCAAACCCACUGCAGCCCCUGAGAGGAGGUCGAAUGGGUAAAGGAGCAUUUUUUUAUUCAGCAGACUUUCUCUGUGUAUGAG | 0.558

Series 2 — technique: protein-binding microarray; molecule type: double-stranded DNA, one strand shown; medium: in vitro; concentration: 250 nM; notes: 60-bp whole probe; added: salmon DNA 0.4 mg/ml; relative to: random background probes; reading: higher = stronger binding; constant ends, left off below: GCCTAGCAC … GTCTTGATTCGCTTGACGCTGCTG
Target: Interferon regulatory factor 5, full length, phosphomimetic (IRF5, Homo sapiens, UniProt Q13568-2, residues 1-514, K96S/S451D/S453D/S456D/S462D)
Oligonucleotide | log fluorescence
TCCAGCCTGTTTCCAGCAGGGTGCTAG | -0.412 z-score
AACGGTTTCGGTCTCGGGACGTGCTAG | 10.2 z-score
TTAGATTTTAGTATCGATTAGTGCTAG | 8.15 z-score
GTCGATTTCAGTTTCGAGACGTGCTAG | 7.94 z-score
TTAGGCTTCCTTTTCCTTTAGTGCTAG | 0.349 z-score
TTAGATATCCGACTGGATTAGTGCTAG | -0.0652 z-score
TCAATTTTAACCCTTATACTGTGCTAG | 0.646 z-score
GTGTTTTCATTTTATGACAGCGTGCTA | 2.83 z-score
GACGGACTGCATTTCCTGACGTGCTAG | -0.392 z-score
TCAATTATATCTGTGTTACTGTGCTAG | 1.13 z-score
GACGGTTTCGGCCTCGGGACGTGCTAG | 6.25 z-score
GACGATCTCAGACTGGAGACGTGCTAG | -0.221 z-score
GTAGGTCTCGGTATCGGTTAGTGCTAG | 5.01 z-score
TCACTTCCCCATCTTGTACTGTGCTAG | 0.667 z-score
GAGGGTATCGGTATCGGGACGTGCTAG | 5.13 z-score
GACGGACTGGGGACTGAGGACGTGCTA | -0.576 z-score
TTAGATTTCGGACTGGGTTAGTGCTAG | 2 z-score
TCAAGTTTTCTTTTCCAACTGTGCTAG | 1.21 z-score

Series 3 — technique: DHFR PCA, deep sequencing; medium: yeast; added: (+)-ABA 0.032 µM; relative to: wild-type fitted maximum; reading: higher = stronger binding
Target: ABI1, truncated, D143A, DHFR fusion (Arabidopsis thaliana)
Notes: methotrexate growth selection, single substitutions
Starting sequence: PYL1, truncated, DHFR fusion (Arabidopsis thaliana); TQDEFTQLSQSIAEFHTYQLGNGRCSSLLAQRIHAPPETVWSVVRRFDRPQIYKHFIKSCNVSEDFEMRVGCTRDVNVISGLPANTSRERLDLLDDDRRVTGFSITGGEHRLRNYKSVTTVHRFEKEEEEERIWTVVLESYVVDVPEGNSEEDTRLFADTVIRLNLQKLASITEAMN; partner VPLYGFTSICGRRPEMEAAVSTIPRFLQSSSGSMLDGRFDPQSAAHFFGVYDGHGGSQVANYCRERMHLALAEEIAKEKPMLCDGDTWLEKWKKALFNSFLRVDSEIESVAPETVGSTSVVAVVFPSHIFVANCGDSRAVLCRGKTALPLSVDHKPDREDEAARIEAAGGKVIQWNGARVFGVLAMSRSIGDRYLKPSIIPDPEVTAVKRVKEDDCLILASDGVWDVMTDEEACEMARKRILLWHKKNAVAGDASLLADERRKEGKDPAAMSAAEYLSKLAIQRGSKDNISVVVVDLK
Variant | relative binding score [%]
P50N | -13.1
T173P | -1.03
T119Y | 0.347
Y18F | -1.67
H110W | 90.2
F47K | -1.07
F124W | 26.2
D144W | -4.34
R24G | 3.1
R155H | -0.162
E131N | 61
E67D | 24.8
D95W | -8.34
V137L | 1.1
V137M | 1.71
R90D | 4.05
V142P | -1.7
I52N | 5.21

Series 4 — technique: protein-binding microarray; molecule type: double-stranded DNA, one strand shown; medium: in vitro; concentration: not given; reading: higher = stronger binding
Target: Hepatocyte nuclear factor 3-beta, forkhead domain (FOXA2, Homo sapiens, UniProt Q9Y261, residues 142-269)
Notes: k-mer, scored over probes, only values ≥0.25
Residues (chain): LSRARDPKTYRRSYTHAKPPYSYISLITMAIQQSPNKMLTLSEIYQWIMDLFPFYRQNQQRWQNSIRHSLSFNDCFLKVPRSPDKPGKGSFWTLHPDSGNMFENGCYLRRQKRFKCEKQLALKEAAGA
Oligonucleotide | E-score
GATTAACA | 0.309
ATTGTAAG | 0.25
CTATTCCA | 0.257
AACATAAT | 0.369
ACTATGAA | 0.281
CAATTACA | 0.284
TAATTCAA | 0.282
AAACACTT | 0.267
ATGTGGAA | 0.305
ACATATGT | 0.394
GCAAATAA | 0.314
AAAATCCA | 0.31
ACATTATG | 0.299
TCACAACA | 0.26
ATAGTTAA | 0.337
ATACAAGG | 0.25
ACGATAAT | 0.286
ATATGAAC | 0.285

Series 5 — target: CCNB3, cyclin fold, Cln2 fusion (human); technique: yeast growth competition, sequencing; medium: yeast; notes: weak parent motif; relative to: not given; reading: higher = stronger binding
Starting sequence: DTL docking peptide (human); PSSMRKICTYFHR; partner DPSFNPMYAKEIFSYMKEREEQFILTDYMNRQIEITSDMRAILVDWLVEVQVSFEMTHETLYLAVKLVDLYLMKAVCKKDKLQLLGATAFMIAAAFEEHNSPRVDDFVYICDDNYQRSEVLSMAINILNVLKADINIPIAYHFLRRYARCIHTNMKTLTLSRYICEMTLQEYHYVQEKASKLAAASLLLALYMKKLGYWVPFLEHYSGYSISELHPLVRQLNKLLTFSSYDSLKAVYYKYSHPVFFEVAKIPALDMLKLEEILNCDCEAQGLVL
Variant | normalised enrichment score
PSSMAKICTYFHR [R5A] | 0.412
PSSMRKICTYFHA [R13A] | 0.246
PSSMRAICTYFHR [K6A] | 0.639
PSAMRKICTYFHR [S3A] | 0.531
PSSMRKICTYFAR [H12A] | 0.32
PASMRKICTYFHR [S2A] | -0.219

Series 6 — technique: universal PBM; molecule type: double-stranded DNA, one strand shown; medium: in vitro; concentration: not given; reading: higher = stronger binding
Target: Sal-like protein 4, full length isoform B (SALL4, Homo sapiens, UniProt Q9UJQ4-2, residues 1-616)
Notes: 8-mer, flanks averaged, mean of replicates
Oligonucleotide | E-score
CTTGGAAA | -0.0211
GGTCGTCA | 0.0114
ATCTCACG | -0.103
GGCTCTGA | -0.108
ACGATCCT | 0.048
AATCGGAT | 0.0901
ATTCAGGG | -0.0818
GCCCGTAA | -0.0995
CCAGTTAA | 0.11
CAAGGACC | -0.154
CATGGCCG | -0.289
AAACAACT | 0.122
GAAACGGC | -0.124
CCATTACA | 0.272
CGGGCAAC | -0.324
CGAATTCG | -0.119
CGTACGCA | -0.126
ACGCACTC | -0.0774
CCTTGGGA | -0.165
ATAAGAAG | 0.188
CTTGCTTA | 0.0192
CTGAACAC | -0.0625
GAAACAGA | 0.064
AACGACCT | -0.125
GGACCCCC | -0.471
